Results collected from several papers.
Lines come from different studies, so protocols differ. ± marks the error that the study gave.
ELANE: Neutrophil elastase (ELANE, Homo sapiens, UniProt P08246)
F12: Coagulation factor XII (F12, Homo sapiens, UniProt P00748)
Rac GTPase-activating protein 1: Rac GTPase-activating protein 1 (Homo sapiens, UniProt Q9H0H5)
USP14: Ubiquitin carboxyl-terminal hydrolase 14 (USP14, Homo sapiens, UniProt P54578)
AVPR1A: Vasopressin V1a receptor (AVPR1A, Homo sapiens, UniProt P37288)
HTR2B: 5-hydroxytryptamine receptor 2B (HTR2B, Homo sapiens, UniProt P41595)

Structure (SMILES) | target | assay | system | setting | inhibition
C/C=C/C(=O)Nc1ccc2nc(NCCCCCN(C)C)nc(NCCCCCCN(C)C)c2c1 | SMYD3 (Homo sapiens, UniProt Q9H7B4) | enzyme activity, inhibitor, radiometric | – | 50 µM | 2%
COCC(=O)N1CCc2cc(-c3csc(NC(=O)c4cc(OC)cc(OC)c4)n3)ccc21 | Cacna1c (Rattus norvegicus, UniProt P22002) | – | rat | 10 µM | 16%
CC(C)NC(=O)[C@H](CCc1ccccc1)NC(=O)[C@H](CC(=O)NCC(C)(C)C)NC(=O)CCc1ccccc1 | ELANE | enzyme activity, inhibitor | – | 100 µM | -10%
CC(C)C[C@@H](NC(=O)C(=O)O)C(=O)O | KDM4E (Homo sapiens, UniProt B2RXH2) | H3K9me3 demethylation, FDH-coupled | – | concentration not given | 14%
Cc1ccc(CN(C)C(=O)C(CCc2ccccc2)NC(=O)C(NC(=O)c2ccc(OCc3ccccc3)cc2)C(C)O)cc1 (stereo not drawn) | F12 | enzyme activity, inhibitor | – | 100 µM | 31%
Cc1ccc(C(C2=C(O)CC(C)(C)CC2=O)C2=C(O)CC(C)(C)CC2=O)o1 | Rac GTPase-activating protein 1 | enzyme activity, inhibitor, ADP detection | – | 10 µM | 49.7%
C=CC(=O)N1Cc2nc(-c3cc(-c4cc(Cl)cnc4Cl)c(F)cc3F)n(-c3ccncn3)c2C1 | PIP5K1B (Homo sapiens, UniProt O14986) | cell-free assay, inhibitor | – | 1 µM | 16%
Cc1ccc(-c2nn(-c3ccc(S(C)(=O)=O)cc3)cc2/C=N/N=C2/NC(=O)CS2)cc1 | EGFR (Homo sapiens, UniProt P00533, L858R) | kinase activity, inhibitor | – | 0.1 µM | 47.9%
O=C1CC(=O)N(c2ccccc2)N1c1ccccc1 | Rac GTPase-activating protein 1 | enzyme activity, inhibitor, ADP detection | – | 10 µM | 26.4%
O=C(Nc1ccc(N2CCOCC2)c2nonc12)c1cc(-c2cccnc2)nc2ccc(Cl)cc12 | USP14 | enzyme activity, inhibitor | – | 17 µM | 69%
Cc1ccc(CNC(=O)[C@H](CCc2ccccc2)NC(=O)[C@H](CC(=O)NCC(C)(C)C)NC(=O)CCc2cccc(F)c2)cc1 | F12 | enzyme activity, inhibitor | – | 100 µM | 32%
C[Si]1(C[C@H](CN)CC(=O)O)CCCC1 | glycine transporter, mouse | binding, radioligand binding | – | 70 µM, together with: [3H]glycine | 0%
CCn1cc(C(=O)O)c(=O)c2c(N)c(F)c(NC3CCCCC3)cc21 | 5'-AMP-activated protein kinase catalytic subunit alpha-1, with beta1, gamma3 (PRKAA1, Homo sapiens, UniProt Q13131) | kinase activity | – | 0.1 µM, together with: ATP at Km | 16.4%
CS(=O)(=O)Nc1cccc(-c2csc3cnc(Nc4ccc(N5CCN(CCCCCOc6cccc7c6C(=O)N(C6CCC(=O)NC6=O)C7=O)CC5)cc4)nc23)c1 (stereo not drawn) | MASTL (Homo sapiens, UniProt Q96GX5) | probe labelling, inhibitor, KiNativ chemoproteomics | MOLT-4 | 1 µM | 24.4%
O=c1ccsn1Cc1ccccc1 | Rac GTPase-activating protein 1 | enzyme activity, inhibitor, ADP detection | – | 20 µM | 78.5%
COc1ccc(C#CC2=C[C@H]3C[C@@]4(OC(=O)C=C24)[C@H]2CC[C@H](C(OC)OC)N32)cc1 | AVPR1A | ligand displacement, radioligand | – | 10 µM | -24%
O=C1NNC(c2ccccc2)=N/C1=C\c1ccc(Cl)cc1 | USP14 | enzyme activity, inhibitor | – | 17 µM | 69%
C[Si](C)(C)C[C@H](CN)CC(=O)O | glycine transporter, mouse | binding, radioligand binding | – | 250 µM, together with: [3H]glycine | -4%
C[C@@H](O)[C@H](NC(=O)c1ccc(OCc2ccccc2)cc1)C(=O)N[C@@H](CCc1ccccc1)C(=O)NCc1ccccc1Cl | ELANE | enzyme activity, inhibitor | – | 100 µM | -1%
CN1CCN(Cc2ccc(-c3ccc(CO[C@H]4CCC[C@@H]4NC(=O)c4cc(-c5cnn(C)c5)cnc4N)cc3)cc2)CC1 | PI4K2A (Homo sapiens, UniProt Q9BTU6) | enzyme activity, inhibitor | – | 0.1 µM | 4%
CC(=O)c1cnc(N)nc1N1CC[C@H]1c1nn2ccc(Cl)c2c(=O)n1-c1ccccc1 | Oprk1 (Rattus norvegicus, UniProt P34975) | enzyme activity, inhibitor | – | 10 µM | 24%
c1ccc(CSc2nnc(-c3ccco3)c(-c3ccco3)n2)cc1 | Rac GTPase-activating protein 1 | enzyme activity, inhibitor, ADP detection | – | 20 µM | 30.6%
O=S(=O)(Nc1nnc(Cc2ccccc2)s1)c1ccc(Br)cc1 | srtA (Staphylococcus aureus, UniProt Q2FV99) | enzyme activity, inhibitor | – | 200 µM | 56.3%

Structure (SMILES) | target | assay | system | setting | inhibition
Cn1c(CNc2ccccc2Cl)nc2ccccc21 | Rac GTPase-activating protein 1 | GAP activity, malachite green phosphate | – | concentration not given, orthogonal retest | 32.6%
Cc1ccc(CNC(=O)C(CCc2ccccc2)NC(=O)C(NC(=O)Cc2cccc(Oc3ccccc3)c2)C(C)O)cc1 (stereo not drawn) | F12 | enzyme activity, inhibitor | – | 100 µM | 38%
CC(=O)C12NC(C)(C)CC1(C)C(=O)C1=C2c2c(c3c4n2C(C)(C)CC2=C4C4(CC(C)(C)NC(C)(C4)C2=O)CC3(C)C)C(=O)C(C)(C)N1 (single isomer, unassigned; (+)) | SCN10A (Homo sapiens, UniProt Q9Y5Y9) | sodium current, antagonist, whole-cell patch clamp | HEK293T cells | 10 µM, resting state (TP1) | 23.87 ± 0.01%
N=C(N)NCCCC(NC(=O)C(CC(=O)NO)Cc1ccc2ccccc2c1)C(=O)NC(Cc1c[nH]c2ccccc12)C(=O)NC(CCC(=O)O)C(N)=O (stereo not drawn) | Cathepsin D (CTSD, Homo sapiens, UniProt P07339) | – | – | 1 µM | -2%
O=C(NN=c1c(=O)c2ccccc2c1=O)c1ccncc1 | USP14 | enzyme activity, inhibitor | – | 17 µM | 83%
CC(C)(C)c1ccccc1OS(=O)(=O)Oc1cccc(C(=O)NO)c1 | HDAC7 (Homo sapiens, UniProt Q8WUI4) | enzyme activity, inhibitor, fluorescence | – | 10 µM | 16%
CC(=O)c1ccc2c3c(cccc13)NC(C)=N2 | Rac GTPase-activating protein 1 | enzyme activity, inhibitor, ADP detection | – | 10 µM | 26.9%
Cc1cc(C)cc(COc2cc3c(cc2OCc2cc(C)cc(C)c2)[C@@H]2C[C@](O)(Cc4cn(Cc5ccc(F)cc5)nn4)C[C@H](C)N2CC3)c1 (relative stereo) | Rab GDP dissociation inhibitor beta, with Rab1A (Homo sapiens, UniProt P50395) | GDI2-Rab1A interaction, NanoLuc complementation | – | 6.25 µM | 86.6%
c1ccc(OC[C@H]2CN(CCN3CCc4ccccc43)CCO2)nc1 | HTR2B | radioligand binding | – | concentration not given, together with: [3H]LSD | 75.6%
O=C(O)C1Nc2ccc(Br)cc2C2C=CCC12 (stereo not drawn) | Rac GTPase-activating protein 1 | enzyme activity, inhibitor, ADP detection | – | 20 µM | 36.3%
Brc1ccc(CNc2ccc3cn[nH]c3c2)s1 | USP14 | enzyme activity, inhibitor | – | 17 µM | 75%
O=C1c2sc(-c3ccc(N4CCC(CO)CC4)nc3F)nc2CCN1c1cccnc1 | HTR2B | ligand displacement, radioligand | – | 1 µM | -13%
CSC1=NSC2=NC(=O)C(=Cc3ccc(O)c(O)c3)C(=N)N12 | USP14 | enzyme activity, inhibitor | – | 17 µM | 6%
O=C(O)C1Nc2ccc(Cl)cc2C2C=CCC12 (stereo not drawn) | Rac GTPase-activating protein 1 | enzyme activity, inhibitor, ADP detection | – | 20 µM | 45%
Cc1ccc(CNC(=O)[C@H](CCc2ccccc2)NC(=O)[C@H](CC(=O)NCC(C)(C)C)NC(=O)c2ccc(OCc3ccccc3)cc2)cc1 | ELANE | enzyme activity, inhibitor | – | 100 µM | -6%
Brc1ccccc1-c1nnc(CSc2nnnn2-c2ccccc2)o1 | HTR7 (Homo sapiens, UniProt P34969) | ligand displacement, radioligand | – | 10 µM | -31%
O=C1CCCC2=C1C1(O)C(=O)c3ccccc3C1(O)O2 (stereo not drawn) | USP14 | enzyme activity, inhibitor | – | 17 µM | 79%
Cc1cc(O)c2c(c1)C(=O)c1cc(O)c(O)c(O)c1C2=O | AVPR1A | calcium mobilization, antagonist, fluorimetry | – | 50 µM, together with: 10 nM vasopressin | 61.1 ± 0.85%
N#C/C(=C\c1ccc(N2CCOCC2)o1)C(=O)NCC1CCCO1 (stereo not drawn) | USP14 | enzyme activity, inhibitor | – | 17 µM | 17%
COc1ncc2nc(C)n(Cc3ncc(S(N)(=O)=O)cc3F)c2c1-c1ccccc1 | AVPR1A | antagonist, cell-based | – | 10 µM | -8.34%
CC(C)N1CCCc2cc(CN)ccc21 | USP14 | enzyme activity, inhibitor | – | 17 µM | 57%
COc1ccc(S(=O)(=O)N2CCc3ccccc3C2)cc1N1CCN(C(=O)c2ccc(F)cc2C(F)(F)F)CC1 | ADCYAP1R1 (Homo sapiens, UniProt P41586) | ligand displacement, radioligand | – | 1 µM | 3.8%

For quick reference, copied from above:
Structure (SMILES) | target | assay | system | setting | inhibition
C=CC(=O)N1Cc2nc(-c3cc(-c4cc(Cl)cnc4Cl)c(F)cc3F)n(-c3ccncn3)c2C1 | PIP5K1B (Homo sapiens, UniProt O14986) | cell-free assay, inhibitor | – | 1 µM | 16%
Cc1ccc(-c2nn(-c3ccc(S(C)(=O)=O)cc3)cc2/C=N/N=C2/NC(=O)CS2)cc1 | EGFR (Homo sapiens, UniProt P00533, L858R) | kinase activity, inhibitor | – | 0.1 µM | 47.9%
O=C1CC(=O)N(c2ccccc2)N1c1ccccc1 | Rac GTPase-activating protein 1 | enzyme activity, inhibitor, ADP detection | – | 10 µM | 26.4%
O=C(Nc1ccc(N2CCOCC2)c2nonc12)c1cc(-c2cccnc2)nc2ccc(Cl)cc12 | USP14 | enzyme activity, inhibitor | – | 17 µM | 69%
Cc1ccc(CNC(=O)[C@H](CCc2ccccc2)NC(=O)[C@H](CC(=O)NCC(C)(C)C)NC(=O)CCc2cccc(F)c2)cc1 | F12 | enzyme activity, inhibitor | – | 100 µM | 32%
C[Si]1(C[C@H](CN)CC(=O)O)CCCC1 | glycine transporter, mouse | binding, radioligand binding | – | 70 µM, together with: [3H]glycine | 0%
CCn1cc(C(=O)O)c(=O)c2c(N)c(F)c(NC3CCCCC3)cc21 | 5'-AMP-activated protein kinase catalytic subunit alpha-1, with beta1, gamma3 (PRKAA1, Homo sapiens, UniProt Q13131) | kinase activity | – | 0.1 µM, together with: ATP at Km | 16.4%
